Published values gathered from unrelated publications.
Every numbered part comes from another study and shows a few of its results, in no order. Positions count from the first letter of the parent shown.

Series 1 — technique: RNA Bind-n-Seq; molecule type: RNA; sample: in vitro; tested at: 365 nM; baseline: no-protein control; reading: higher = stronger binding; measurement: RBNS enrichment (R)
Target: RNA binding protein fox-1 homolog 2, RRM domain, GST-SBP tag (RBFOX2, Homo sapiens, UniProt O43251-10, residues 100-194)
Notes: natural RNA segment, single round, ends assumed
Constant ends, left off below: GGGAGUUCUACAGUCCGACGAUC … UGGAAUUCUCGGGUGCCAA
Target sequence (chain): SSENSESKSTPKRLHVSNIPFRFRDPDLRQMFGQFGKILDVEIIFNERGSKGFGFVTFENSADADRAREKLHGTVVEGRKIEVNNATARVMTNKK
AGAGACAAAGACAAAGACUGCCUGCCUUGGAGGGUCACUGAGGGAGACCUGUGCCUGAUUUCAUUAGGAAAUCCAUUCUGUUAUUUUUUUUUGGUGCUGUUGGCUACUUU: 0.938
AUCUGCCUUACUUGCACCCACCAGGAUAAGGACAUAAACGGUGCUCAACUUUUCUGCCACCAGACUGUUAACUUUGCUAAAUGGCUCAAGAACAGUCAGUUAGCCCUGCU: 0.302
UUGGUCACUGUAAAUAUGAAUUGUGACCCCAUCCCUUCCCGCAUGAGCCCAGUGAGUCCCAGCAGCUAUCAGCCUCCCUGAACGAUUAAACAGCUCCUCCCAGCAUUUGC: 6.38
GAGCCUUACUUAGAAGAUGCUGCUGGAGUCACAGCUGAGGAGAGGAAUACUAUCAACAUGGACUAUCCUGGGAAAGAGCUAGGAAGUAGAUGCUGAGGUCCCCAUCCAAA: 0.525
AAUUAGAUUCUAAAACACAAAUCACAAGAACGUUUGAUAUUGAAGUGUCUGGCUUUAACAUGUGAUUCCACAAGAGUAGAAGCAAGAAAGGUAUAUACUUUUAGGAGCCU: 0.59
CUGACUCAGAAGACGCAGCUUACUGCUUCCAACUUUGCACAUCUUCCUCUUUAAAAAACUGAGAAAAUGCAAAAACUGGAACUUUUUGCAAUAUUAUAAAAGAAGUAAUC: 0.35
AUUUUUAUUUUGCAUACUGAGGGUAUUUGGGGUGGGGUUGUUUUUUGAGAUGUGUAAUUCUUUUAUGGAGUUUUUAAAAAGAAUUUUCAUAUUGUUUUUUCUAACAUGGC: 2.61
AUGUAGCAAUUUUUUCCUAAACACAAAAUGGCCUUUUGCUUGUCUGGUAAUGAGAUUGUAAAUCCAUUUCCUGCGUGUGUUCUCCGCAGGCUUGCCUGAGUGUGUGGGGU: 0.528

Series 2 — technique: protein-binding microarray; molecule type: double-stranded DNA, one strand shown; sample: in vitro; tested at: 2200 nM top; notes: 60-bp whole probe; together with: salmon DNA 0.4 mg/ml; baseline: random background probes; reading: higher = stronger binding; measurement: fitted relative affinity; constant ends, left off below: GCCTAGCAC … GTCTTGATTCGCTTGACGCTGCTG
Target: Interferon regulatory factor 7, full length, phosphomimetic (IRF7, Homo sapiens, UniProt Q92985, residues 1-503, S471D/S472D/S475D/S476D/S477D/S483D/S484D/S487D)
Residues (chain): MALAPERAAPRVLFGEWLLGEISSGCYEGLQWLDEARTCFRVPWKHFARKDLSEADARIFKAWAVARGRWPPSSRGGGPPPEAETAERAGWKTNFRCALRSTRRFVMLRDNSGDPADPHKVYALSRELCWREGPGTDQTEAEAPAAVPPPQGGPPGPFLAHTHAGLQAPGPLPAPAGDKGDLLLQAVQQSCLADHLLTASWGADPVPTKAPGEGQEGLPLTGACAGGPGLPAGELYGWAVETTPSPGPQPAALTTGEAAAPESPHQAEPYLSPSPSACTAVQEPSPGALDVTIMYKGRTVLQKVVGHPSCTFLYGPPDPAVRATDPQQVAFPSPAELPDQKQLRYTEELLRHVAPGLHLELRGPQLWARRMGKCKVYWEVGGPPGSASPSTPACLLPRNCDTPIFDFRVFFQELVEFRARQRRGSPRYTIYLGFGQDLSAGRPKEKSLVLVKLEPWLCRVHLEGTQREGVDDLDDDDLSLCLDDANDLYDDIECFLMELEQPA
TTAGGTTTCCTTATCCTTAAGTGCTAG: 2.09 z-score
TTAGATATCGGGTATCGAATAGTGCTA: 0.167 z-score
TTAGGTTTCGGCATCGGTTAGTGCTAG: 3.13 z-score
TTAGATCTCAGTATCCATTAGTGCTAG: 0.534 z-score
CCAGTTTTGTGTGTGTGTTTGTGCTAG: 2.11 z-score
GACGATTTCAGTTCGGAGACGTGCTAG: 1.36 z-score
CTATGTCTGTTTTTGCTTTCGTGCTAG: 4.01 z-score
GACGGTGTCGGGTTTCGGGACGTGCTA: 0.562 z-score
TTAGGTATCGACTATCGATTAGTGCTA: 0.202 z-score
TCACTTTCCTTACTTCCCACTGTGCTA: 5.26 z-score
TCAAGTTTGTATATATTACTGTGCTAG: 0.537 z-score
GACGGACTGCGGACTGGGGACGTGCTA: -0.953 z-score
GATGGTATCCTTCTCCTGACGTGCTAG: 1.27 z-score
TTAGGTCTCGTTTTCCTTTAGTGCTAG: 3.56 z-score

Series 3 — technique: universal PBM; molecule type: double-stranded DNA, one strand shown; sample: in vitro; tested at: 600 nM; reading: higher = stronger binding; measurement: E-score
Target: Sal-like protein 4, full length isoform A (SALL4, Homo sapiens, UniProt Q9UJQ4, residues 1-1053)
UniProt Q9UJQ4, sequence (whole entry, looked up): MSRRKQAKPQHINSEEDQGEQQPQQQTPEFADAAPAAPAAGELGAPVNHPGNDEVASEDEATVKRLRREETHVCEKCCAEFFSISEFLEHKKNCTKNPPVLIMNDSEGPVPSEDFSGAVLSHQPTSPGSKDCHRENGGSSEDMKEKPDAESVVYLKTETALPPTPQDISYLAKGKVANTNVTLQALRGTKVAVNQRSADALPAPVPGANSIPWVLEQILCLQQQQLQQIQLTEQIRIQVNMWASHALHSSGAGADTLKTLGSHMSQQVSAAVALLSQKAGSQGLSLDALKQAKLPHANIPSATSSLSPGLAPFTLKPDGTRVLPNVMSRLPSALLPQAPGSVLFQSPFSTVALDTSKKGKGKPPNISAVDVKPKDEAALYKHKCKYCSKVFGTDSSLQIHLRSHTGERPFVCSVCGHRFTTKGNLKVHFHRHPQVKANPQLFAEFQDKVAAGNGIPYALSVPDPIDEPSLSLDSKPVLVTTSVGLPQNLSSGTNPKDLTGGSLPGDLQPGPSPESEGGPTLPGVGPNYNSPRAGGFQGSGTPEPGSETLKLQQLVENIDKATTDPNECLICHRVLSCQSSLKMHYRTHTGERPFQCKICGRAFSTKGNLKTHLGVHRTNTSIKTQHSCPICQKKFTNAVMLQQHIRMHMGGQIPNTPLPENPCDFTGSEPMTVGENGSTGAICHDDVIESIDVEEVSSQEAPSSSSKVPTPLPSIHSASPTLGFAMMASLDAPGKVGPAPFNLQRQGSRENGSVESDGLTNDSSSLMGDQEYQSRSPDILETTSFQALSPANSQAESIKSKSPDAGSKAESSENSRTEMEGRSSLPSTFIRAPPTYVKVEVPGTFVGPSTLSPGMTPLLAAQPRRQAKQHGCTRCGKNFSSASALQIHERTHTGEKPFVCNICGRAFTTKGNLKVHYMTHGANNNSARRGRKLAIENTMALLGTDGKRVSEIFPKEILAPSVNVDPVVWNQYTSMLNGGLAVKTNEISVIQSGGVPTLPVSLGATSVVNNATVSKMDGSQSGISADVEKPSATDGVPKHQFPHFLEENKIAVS
Notes: 8-mer, flanks averaged, mean of replicates
AGATTTAA: 0.101
AATAGCGG: -0.0323
GATGAAAA: 0.221
ATCTGGCC: -0.201
GGGCTGGA: -0.331
CTGTCCTA: -0.0102
CAACTACA: 0.18
GTGCGAGA: -0.00609
GGTCATAC: -0.0418
CGTCTCCC: -0.189
CAGCAGTC: -0.15
CGTGGTAA: 0.054
GGAAGACA: 0.0506
TAATCCTA: 0.143
GGGGCTAC: -0.323
TCGGAGCA: -0.171
AATGAGAG: 0.123
TGGGAACA: -0.138
ATGGGCCC: -0.34
AAACTTAT: 0.355
CAAAGAGC: -0.141
GTTGGGCA: -0.0742
GATGTGCC: -0.0981
AACTACCC: 0.0429
AACGAGTG: 0.0545

Series 4 — target: CCNE1, cyclin fold, Cln2 fusion (human); technique: yeast growth competition, sequencing; sample: yeast; notes: weak parent motif; baseline: not given; reading: higher = stronger binding; measurement: normalised enrichment score
Parent: ITGB3BP docking peptide (human); MPVKRSLKLDGLL
R5A L7A: 0.0205
L9A: 1.12
L7A: 1.05
R5K: 0.117
R5A: 0.0937
D10A: 0.501
M1A: 0.463
L9F: 1.26
V3A: 0.987
L12A: 0.244

Series 5 — technique: protein binding microarray; molecule type: double-stranded DNA, one strand shown; sample: in vitro; tested at: not given; baseline: not given; reading: higher = stronger binding; measurement: E-score
Target: Histone acetyltransferase KAT6A, winged helix 1, GST fusion (KAT6A, Homo sapiens, UniProt Q92794, residues 1-85)
Notes: 8-mer, flanks averaged, mean of 2 arrays, mostly near background
Residues (chain): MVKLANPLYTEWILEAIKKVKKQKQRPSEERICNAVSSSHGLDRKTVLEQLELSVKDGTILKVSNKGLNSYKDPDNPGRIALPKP
CCAACCTC: -0.0787
GAGCACTC: -0.192
GCTGGGAC: -0.12
GGATCGAC: -0.035
CAACGCAA: 0.0599
CCTGTTGC: -0.16
CACCTTTA: -0.123
CCATCCGA: -0.178
AGTAGTGC: 0.147
GTGGAAAA: -0.122
ACTCCTTA: -0.0275
CAAGACTG: -0.229
TTGGCAAA: -0.166
CCATCGTA: -0.143
CCTAGGCA: -0.215
GAGCGACC: 0.0942
CCACCTCG: -0.13

Series 6 — technique: DHFR PCA, deep sequencing; sample: yeast; together with: (+)-ABA 17 µM; baseline: wild-type fitted maximum; reading: higher = stronger binding; measurement: relative binding score
Target: ABI1, truncated, D143A, DHFR fusion (Arabidopsis thaliana)
Notes: methotrexate growth selection, single substitutions
Parent: PYL1, truncated, DHFR fusion (Arabidopsis thaliana); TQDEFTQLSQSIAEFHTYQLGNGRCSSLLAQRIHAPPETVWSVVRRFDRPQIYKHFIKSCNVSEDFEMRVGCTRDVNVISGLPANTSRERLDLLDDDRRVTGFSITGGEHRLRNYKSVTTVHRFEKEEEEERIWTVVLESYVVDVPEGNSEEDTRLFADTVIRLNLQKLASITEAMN
Q2P: 83.9%
S117A: 60.8%
V136T: 62.1%
L169D: -14.3%
D96V: 10.6%
F103H: 11.9%
E4F: 59.9%
I172E: 32.9%
L169E: 6.43%
G23S: 67.5%
F56G: -0.785%
V143D: -13.7%
K168W: 77.9%
F15K: 9.28%
A30I: 80.5%
K168Q: 77.9%
C72M: 80.3%
S87P: 7.71%

Single results of other studies
PhoQ, residues 284 288 289 292 302 303 WVSSAF
fold induction (PhoP, residues 12 14 15 18 19 LHHSG (Escherichia coli, UniProt P23836); Sort-seq, refers to: YFP reporter; E. coli; PhoQ-PhoP variant library, together with: 10 µM Mg2+; baseline: high Mg2+ state, higher = stronger signaling): 1.5

A few entries again (series 3):
GGGCTGGA: -0.331
CTGTCCTA: -0.0102
CAACTACA: 0.18
GTGCGAGA: -0.00609
GGTCATAC: -0.0418
CGTCTCCC: -0.189
CAGCAGTC: -0.15
CGTGGTAA: 0.054
GGAAGACA: 0.0506
TAATCCTA: 0.143
GGGGCTAC: -0.323
